Published values gathered from unrelated publications.
“And” joins repeats or separate records; there may be more than shown.
Target: Sodium-dependent serotonin transporter (SLC6A4, Homo sapiens, UniProt P31645)

Structure (SMILES)	test	setting	scale	measurement	result
COc1ccc(F)cc1S(=O)(=O)Nc1cnc2c(c1)C(=O)NCCO2	ligand displacement, radioligand	10 µM	–	inhibition	1%
CCc1nnc(-c2c(OC)cc(-c3cnc4cc(-c5cnn(C)c5)ccn34)cc2OC)o1	antagonist radioligand, radioligand binding	10 µM, SafetyScreen44 5-HT transporter replicate 2	lower = stronger displacement	remaining binding	110%
N[C@H](C(=O)N1CCCC1)C1CCN(c2nccc3c(-c4ncc(Cl)cc4Cl)cccc23)CC1	ligand displacement	10 µM	–	inhibition	27%
O=C(O)c1ccc(-c2nc(-c3ccccc3Cl)c3sccn23)cc1	radioligand binding, safety screen panel	10 µM	reference: control	specific binding	98.1% and 94%
CN[C@@H]1[C@H](O)[C@H](NC)[C@H]2O[C@]3(O)[C@H](O[C@@H]2[C@H]1O)O[C@H](C)C[C@H]3NC(=O)Cc1ccc(Cl)cn1	ligand displacement, radioligand	10 µM	–	inhibition	1%
CCN(CC)CCOc1ccc(-c2nnn(Cc3ccc(OC)cc3)c2N)cc1	radioligand binding	10 µM, human, with: radioligand 10000 nM	–	inhibition	-10.1%
CCO[C@H]1[C@H](O)[C@@H](N)[C@@H](O[C@H]2[C@H](O[C@@H]3O[C@H](CO)[C@@H](O[C@H]4O[C@@H](CN)[C@@H](O)[C@H](O)[C@H]4N)[C@H]3O)[C@@H](O)[C@H](N)C[C@@H]2N)O[C@@H]1CO	radioligand binding	10 µM, 1% DMSO	–	specific binding	-1%
Cc1sc2c(c1C)C(c1ccc(Cl)cc1)=NC(CC(=O)OC(C)(C)C)c1nnc(C)n1-2 (stereo not drawn)	ligand displacement, radioligand	1 µM	–	remaining binding	119%
Cc1cc(Nc2nc(C[C@@]3(C(=O)O)CCN(Cc4cccc(Cl)c4F)[C@H](C)C3)cc(C)c2F)[nH]n1	inhibitor	10 µM	–	inhibition	10.1%

For quick reference, copied from above:
Structure (SMILES)	test	setting	scale	measurement	result
Cc1sc2c(c1C)C(c1ccc(Cl)cc1)=NC(CC(=O)OC(C)(C)C)c1nnc(C)n1-2 (stereo not drawn)	ligand displacement, radioligand	1 µM	–	remaining binding	119%
